Results from different studies.
Protocols differ between the studies behind these lines. Several values in a cell are separate wells, animals, samples, runs or records. ± marks the error that the study gave. Converted amounts (≈) assume the structure as drawn.
Chain of UniProt Q16539 (whole entry, looked up): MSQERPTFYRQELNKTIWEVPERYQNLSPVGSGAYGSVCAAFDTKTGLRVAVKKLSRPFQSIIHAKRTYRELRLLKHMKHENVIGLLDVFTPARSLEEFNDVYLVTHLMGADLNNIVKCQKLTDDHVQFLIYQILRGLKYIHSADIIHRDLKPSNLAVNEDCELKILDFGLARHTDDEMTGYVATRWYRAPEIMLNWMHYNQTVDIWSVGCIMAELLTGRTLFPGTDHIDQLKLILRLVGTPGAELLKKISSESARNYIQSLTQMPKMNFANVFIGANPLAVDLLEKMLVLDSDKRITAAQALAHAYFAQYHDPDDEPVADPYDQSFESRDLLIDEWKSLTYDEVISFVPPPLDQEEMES

| Structure (SMILES) | target or system | assay | test system | conditions | scale | endpoint | result |
| --- | --- | --- | --- | --- | --- | --- | --- |
| OC1CCN(c2ccc(/C=N/NC(=S)Nc3cccc(Cl)c3Cl)cc2)CC1 | BEAS-2B and A549 | MTT |  |  | relative to: IC50 BEAS-2B over IC50 A549 | selectivity ratio | 28.9 |
| CC(C)N1CCC(NC2CCN(c3cccc(-c4cc5cc(F)ccc5[nH]4)c3)CC2)CC1 | COLO 205 |  |  |  |  | GI50 | 1490 nM |
| Cc1[nH]c2ccccc2c1-c1csc(-c2c[nH]c3ccccc23)n1 | primary human keratinocyte raft cultures | qPCR |  | 10 µM, 14, 16 and 18 days | relative to: DMSO | HPV18 DNA level | ≤ 1% |
| COC(=O)/C(C)=C\C[C@@]12OC(C)(C)[C@@H]3C[C@@H](C=C4C(=O)c5c(O)c6c(c(CC=C(C)C)c5O[C@]431)O[C@](C)(CCC=C(C)C)C=C6)C2=O | human iPSC cardiomyocytes | plate-normalised |  | concentration not given, hit retest | relative to: vehicle controls, SDs below control | MyBP-C level change | 17.2 SD |
| C[C@@H](O)[C@@H](CO)NC(=O)[C@@H](CCCNC(=N)N)NC(=O)[C@@H]1CCCN1C(=O)[C@@H]1CSSC[C@H](NC(=O)[C@H](Cc2ccccc2)NC(=O)CN2CCN(CC(=O)O)CCN(CC(=O)O)CCN(CC(=O)O)CC2)C(=O)N[C@@H](Cc2ccc(O)cc2)C(=O)N[C@@H](Cc2ccccc2)C(=O)N[C@@H](CCC(N)=O)C(=O)N[C@@H](CC(N)=O)C(=O)N1 [gallium-68 labelled] |  |  | Wistar rat, healthy, urinary bladder | intravenous, 8 MBq, 60 min, mean |  | tissue uptake | 2.11 %ID/g |
| Cn1c(CCCCCCC(=O)NO)nc2cc(N(CCCl)CCCl)ccc21 | HEK293T ATF4-FLuc reporter | ATF4 reporter gene, activator, luciferase reporter |  |  |  | EC50 | 3.75 µM |
| CCN(CC)c1ccc(C=NNC(=O)CSc2nc3ccccc3c(=O)n2Cc2ccc(S(N)(=O)=O)cc2)c(O)c1 | TK-10 | NCI five-dose screen |  |  |  | CC50 | > 100 µM |
| CC(=O)NC1CCSC1=O (centres unmarked) | THP-1 | pyroptotic LDH release |  | 2 µM, 40 min, together with: LPS then nigericin |  | inhibition | -7.46% |
| COc1cc2c(Oc3ccc4[nH]c(C)cc4c3F)ccnc2cc1OCC1(N)CC1 |  |  | paediatric recurrent refractory sarcoma | 12 mg |  | grade 3 Triglyceride elevation | 0% |
| Cc1cc(C(C)(C)c2ccc(O)c(C)c2)ccc1O | HepG2 spheroids | Hoechst flow cytometry |  | 0.10 µM, 96 h |  | G1 phase cells | 65.7 ± 9.95% |
| Cc1nn(-c2nc3ccc(Cl)c(Cl)c3[nH]2)c(O)c1C1OC(=O)c2ccccc21 (centres unmarked) | RAW-ISG | CCK-8 |  | 0.1 µM |  | viability | 99.8% and 104% and 93.7% and 110% and 106% |
| O=C1N(Cc2ccccc2Cl)c2ccccc2C12NN=C(c1ccccc1)S2 (centres unmarked) | MDA-MB-468 | gene expression array, measured: RPS2 mRNA |  | 10 µM, 12 h | relative to: untreated, up | fold change | 1.53 |
| CC[C@H](C)[C@@H]1NC(=O)[C@@H]2CCCN2C(=O)[C@H](CC(C)C)NC(=O)[C@H](CC(C)C)NC(=O)CNC(=O)[C@@H](NC(=O)[C@@H](NC(=O)[C@H](CC(=O)O)NC(=O)CNC(=O)[C@@H](NC(=O)[C@H](C)NC(=O)CNC(=O)[C@H](CCCCN)NC(=O)[C@H](CC(C)C)NC(=O)[C@H](CC(C)C)NC(=O)[C@H](CCCCN)NC(=O)CNC(=O)[C@@H](NC(=O)[C@@H](N)CC(C)C)C(C)C)C(C)C)C(C)C)CSSC[C@@H](C(=O)O)NC1=O |  | RNA-seq, measured: Mefv mRNA | mouse traumatic brain injury, frontal cortex and hippocampus | dose not given | relative to: TBI plus compound vs TBI | log2 fold change | -4 |
| Nc1ncnc2c1ncn2[C@@H]1O[C@@H]2COP(=O)(O)O[C@H]3[C@@H](O)[C@H](n4cnc5c(=O)[nH]cnc54)O[C@@H]3COP(=O)(O)O[C@H]2[C@H]1O | HFF-1 | RNA sequencing, measured: ER-Phagosome pathway |  | upregulated pathway | relative to: Zika virus alone | pathway fold enrichment | 6.12 |
| COc1c(CCC[P+](c2ccccc2)(c2ccccc2)c2ccccc2)cc2c(c1OC)OCO2.[I-] | Malme-3M | SRB |  |  |  | LC50 | -4.44 log M |
| C/C=C(/C)C(=O)O[C@H]1C(C)=C2[C@H]([C@@H]1OC(=O)CCCCCCC)[C@@](C)(OC(C)=O)C[C@H](OC(=O)CCC)[C@@]1(O)[C@H]2OC(=O)[C@@]1(C)O | HEK-293T | RNA-seq GSEA, measured: Hallmark UV response up |  | 500 nM, 6 h | direction not given | normalized enrichment score | -1.24 |
| COc1ccc([C@H]2c3[nH]c4ccc(Cl)cc4c3CCN2C(=O)Oc2ccc(Cl)cc2)cc1 | human dermal fibroblasts with PBMC | cytokine secretion, measured: IL-8 |  | 0.1 µM, 48 h |  | inhibition | 44% |
| C[C@]12CC[C@H](O)C[C@H]1CC[C@@H]1[C@@H]2C[C@@H](O)[C@]2(C)[C@@H](C3=CC(=O)OC3)CC[C@]12O | human iPSC cardiomyocytes | plate-normalised |  | concentration not given, hit retest | relative to: vehicle controls, SDs below control | MyBP-C level change | 14.7 SD |
| O=c1cc(-c2ccc(O)cc2)oc2c([C@@H]3OC[C@H](O)[C@H](O)[C@H]3O)c(O)c([C@@H]3O[C@H](CO)[C@@H](O)[C@H](O)[C@H]3O)c(O)c12 | CaMKII-δ overexpressing cells | GFP-RFP-LC3 reporter |  | concentration not given, adenoviral CaMKII-δ overexpression |  | autolysosome formation | increased |

| Structure (SMILES) | target or system | assay | test system | conditions | scale | endpoint | result |
| --- | --- | --- | --- | --- | --- | --- | --- |
| Cn1cncc1C1=CN(c2ncnc3[nH]cnc23)CCS1 | Malme-3M |  |  | melanoma cell line |  | CC50 | > 200 µM |
| CC[C@H](C)[C@H](NC(=O)[C@H](Cc1ccccc1)NC(=O)[C@H](CCC(=O)O)NC(=O)[C@H](CCCNC(=N)N)NC(=O)[C@H](C)NC(=O)[C@H](C)NC(=O)[C@H](CCC(N)=O)NC(=O)[C@H](CCC(=O)O)NC(=O)[C@H](CCC(=O)O)NC(=O)[C@H](CC(C)C)NC(=O)[C@H](Cc1ccc(O)cc1)NC(=O)[C@H](CO)NC(=O)[C@H](CO)NC(=O)[C@@H](NC(=O)[C@H](CC(=O)O)NC(=O)[C@H](CO)NC(=O)[C@@H](NC(=O)[C@H](Cc1ccccc1)NC(=O)[C@@H](NC(=O)CNC(=O)[C@H](CCC(=O)O)NC(=O)[C@H](C)NC(=O)CCc1c[nH]cn1)[C@@H](C)O)[C@@H](C)O)C(C)C)C(=O)N[C@@H](C)C(=O)N[C@@H](Cc1c[nH]c2ccccc12)C(=O)N[C@@H](CC(C)C)C(=O)N[C@H](C(=O)N[C@@H](CCCNC(=N)N)C(=O)NCC(=O)N[C@@H](CCCNC(=N)N)C(=O)N[C@@H](CCCCNC(=O)COCCOCCNC(=O)COCCOCCNC(=O)CC[C@H](NC(=O)CCCCCCCCCCCCCCCCC(=O)O)C(=O)O)C(=O)NCC(=O)NCC(=O)N[C@@H](CO)C(=O)N[C@@H](CCCCNc1c(NCCCCCN(O)C(=O)CCC(=O)NCCCCCN(O)C(=O)CCC(=O)NCCCCCN(O)C(C)=O)c(=O)c1=O)C(=O)O)C(C)C [zirconium-89 labelled] |  |  | rat, colon | sc, 3 nmol/kg, 168 h, ex vivo |  | tissue uptake | 0.11 %ID/g |
| Cc1cnc2ccc3c(nc(N)n3C)c2n1 | BALB/c 3T3 | colony forming efficiency |  | 0.1 µM |  | colony number | 88 colonies per plate and 96 colonies per plate |
| O=C1CCP(=S)(c2ccccc2)CC1 | SW-620 | annexin V/PI flow cytometry |  | IC50, 72 h |  | early apoptotic cells | 2.55% |
| C[C@@H](O)[C@H]1C(=O)N2C(C(=O)O)=C(SCCN=CN)C[C@H]12 | Escherichia coli DH5α expressing KPC-180 | bacterial growth |  |  |  | MIC | 1 µg/mL (≈ 3.34 µM) |
| Cn1cc2cc(C(F)(F)c3nnc4ccc(-c5cnn(C6CC6)c5)nn34)c(F)cc2n1 | MKN-45 | western blot |  | concentration not given, 48 h |  | cleaved PARP level | increased |
| CC[C@H](C)[C@H](NC(=O)[C@H](CCC(=O)O)NC(=O)[C@H](C)NC(=O)[C@H](Cc1c[nH]cn1)NC(=O)[C@H](C)NC(=O)[C@H](C)NC(=O)[C@H](Cc1c[nH]cn1)NC(=O)[C@@H](NC(=O)[C@H](C)NC(=O)[C@H](CCC(N)=O)NC(=O)[C@H](CO)NC(=O)[C@@H](NC(=O)[C@@H](N)CS)[C@@H](C)CC)C(C)C)C(=O)N[C@@H](CC(N)=O)C(=O)N[C@@H](CCC(=O)O)C(=O)N[C@@H](C)C(=O)NCC(=O)N[C@@H](CCCNC(=N)N)C(=O)O | mouse OT-II CD4 T cells | ELISA, measured: IL-2 |  | pulsed BMDCs 2 h co-culture 48 h |  | EC50 | 1.5 µg/mL |
| Cc1sc2c(c1C)C(c1ccc(Cl)cc1)=N[C@@H](CC(=O)OC(C)(C)C)c1nnc(C)n1-2 | iCas9-MOLM-13 sgGFP | RNA-seq, measured: MYBPH |  | 50 nM, 24 h | relative to: DMSO | log2 fold change | 0.168 |
| O=S(=O)(c1ccc(O)cc1)c1ccc(O)cc1 | HepG2 spheroids | Hoechst flow cytometry |  | 1 µM, 24 h |  | G2 phase cells | 19.8 ± 4.37% |
| COc1ccc(C=O)cc1O | THP-1 | pyroptotic LDH release |  | 2 µM, 40 min, together with: LPS then nigericin |  | inhibition | -5.84% |
| CN1CCN(C2(CNC3CCN(c4cccc(-c5cc6cc(F)ccc6[nH]5)c4)CC3)CCC2)CC1 | CAKI-1 |  |  |  |  | CC50 | 6.14 µM |
| C=C1[C@@H](O)[C@@H]2O[C@]3(CC[C@H](/C=C/[C@@H](C)[C@@H]4CC(C)=C[C@@]5(O[C@H](C[C@@](C)(O)C(=O)O)CC[C@H]5O)O4)O3)CC[C@H]2O[C@@H]1[C@@H](O)C[C@H](C)[C@H]1O[C@@]2(CCCCO2)CC[C@H]1C | RPE-1 hTERT TP53-/- cells | cell viability |  |  |  | LD20 | 1.7 nM |
| CN1CCc2[nH]c(-c3ccnc(NC(=O)[C@@H](CC(F)F)c4ccc(F)cc4)c3)c(Nc3ccccc3)c2C1=O | MOLM-13 | mRNA level, RNA-seq, measured: SLC7A5 |  | 200 nM, 24 h | relative to: DMSO | log2 fold change | -3.23 |
| C[C@H]1CN(c2n[nH]c3nc(N[C@H]4CC[C@H](NS(=O)(=O)CCC(F)(F)F)CC4)ncc23)CCO1 | MAPK14 (Homo sapiens, UniProt Q16539) | Kinobeads competition | HEK293, K562, placenta lysate | 0.16 µM, unit not given | relative to: vehicle | remaining binding | 0.87 |
| CC(c1ccccc1)(c1ccc(O)cc1)c1ccc(O)cc1 | HepG2 spheroids | Hoechst flow cytometry |  | 10 µM, 96 h |  | G2 phase cells | 19.9 ± 4.1% |
| C[C@H]1O[C@@H](O[C@H]2[C@@H](O)C[C@H](O[C@H]3[C@@H](O)C[C@H](O[C@H]4CC[C@@]5(C)[C@H](CC[C@@H]6[C@@H]5C[C@@H](O)[C@]5(C)[C@@H](C7=CC(=O)OC7)CC[C@]65O)C4)O[C@@H]3C)O[C@@H]2C)C[C@H](O)[C@@H]1O | ReNcell VM | YO-PRO-1 staining |  | 24 h |  | lowest concentration increasing apoptotic cells | ≤ 0.39 µM |
| COc1cc(CCC[P+](c2ccccc2)(c2ccccc2)c2ccccc2)c(OC)c2c1OCO2.[I-] | Malme-3M | SRB |  |  |  | GI50 | -6.22 log M |
| COc1c(C)c2c(c(O)c1C/C=C(\C)CCC(=O)O)C(=O)OC2 | THP-1 | cell proliferation | blood cancer |  |  | IC50 | 437 nM |
| COc1ccc2c(c1)[nH]c1c(C)nccc12 | DU-145 | bisulfite pyrosequencing, measured: RASSF1A promoter CpG site 3 |  | concentration not given | relative to: vehicle | methylation reduction | 0% |
